Experimental data from different studies.
Numbers after ± are the reported error.

CC[C@H](C)[C@H](NC(=O)[C@H](C)NC(=O)CNC(=O)[C@H](Cc1c[nH]cn1)NC(=O)[C@@H](NC(=O)[C@H](Cc1ccccc1)NC(=O)[C@H](CCCCN)NC(=O)CNC(=O)[C@H](C)NC(=O)[C@H](CCCCN)NC(=O)[C@H](Cc1ccccc1)NC(=O)[C@@H](NC(=O)[C@H](Cc1c[nH]cn1)NC(=O)[C@H](CCCCN)NC(=O)[C@H](Cc1ccccc1)NC(=O)[C@@H](NC(=O)[C@H](CO)NC(=O)CNC(=O)[C@H](Cc1c[nH]c2ccccc12)NC(=O)CNC(=O)[C@H](C)N)[C@@H](C)CC)[C@@H](C)CC)[C@@H](C)CC)C(=O)N[C@@H](CCC(N)=O)C(=O)N[C@@H](C)C(=O)N[C@@H](Cc1c[nH]cn1)C(=O)N[C@@H](CC(N)=O)C(=O)N[C@@H](CC(=O)O)C(N)=O — result for “chronic toxic concentration”: 5 µM (zebrafish embryos 28 hpf, E3 medium; 24 h).
The tumour concentration of CC(C)NCCCn1c(Sc2cc3c(cc2I)OCO3)nc2c(N)ncnc21 is reported as 1.8 µM (LC-MS/MS; mouse, MDA-MB-468 xenograft, tumour; 25 mg/kg single dose, 24 h).
CCCCCCCCCCCCCCCC(=O)N[C@@H](CCC(=O)NCCOCCOCCC(=O)NCCOCCOCCC(=O)NCCCC[C@H](NC(=O)[C@H](CC(=O)O)NC(=O)[C@H](CC(C)C)NC(=O)[C@H](Cc1ccc(O)cc1)NC(=O)[C@H](CCCCN)NC(=O)[C@H](CO)NC(=O)[C@H](Cc1ccc(O)cc1)NC(=O)[C@H](CC(=O)O)NC(=O)[C@H](CO)NC(=O)[C@@H](NC(=O)[C@H](Cc1ccccc1)NC(=O)[C@@H](NC(=O)CNC(=O)[C@H](CCC(N)=O)NC(=O)[C@@H](CO)NC(=O)[C@@H](N)Cc1c[nH]cn1)[C@@H](C)O)[C@@H](C)O)C(=O)N[C@@H](CCCNC(=N)N)C(=O)N[C@@H](CCCNC(=N)N)C(=O)N[C@@H](C)C(=O)N[C@@H](CCC(N)=O)C(=O)N[C@@H](CC(=O)O)C(=O)N[C@@H](Cc1ccccc1)C(=O)N[C@H](C(=O)N[C@@H](CCC(N)=O)C(=O)N[C@@H](Cc1c[nH]c2ccccc12)C(=O)N[C@@H](CC(C)C)C(=O)N[C@@H](CC(C)C)C(=O)N[C@@H](CC(N)=O)C(=O)N[C@H](C(=O)NCC(=O)NCC(=O)N1CCC[C@H]1C(=O)N[C@@H](CO)C(=O)N[C@@H](CO)C(=O)NCC(=O)N[C@@H](C)C(=O)N1CCC[C@H]1C(=O)N1CCC[C@H]1C(=O)N1CCC[C@H]1C(=O)N[C@@H](CO)C(N)=O)[C@@H](C)O)C(C)C)C(=O)O — result for “serum enzyme activity”: 34.6 ± 6.1 U/L (refers to: ALT; Sprague-Dawley rat, male; subcutaneous, 20 µg/kg once daily, 14 days).
CSCC[C@H](N)C(=O)N[C@@H](C)C(=O)N[C@@H](CCCNC(=N)N)C(=O)N[C@@H](CCCNC(=N)N)C(=O)N[C@@H](CC(=O)O)C(=O)N[C@@H](CCCCN)C(=O)N[C@H](C(=O)N[C@@H](CC(=O)O)C(=O)N[C@@H](Cc1ccccc1)C(=O)N[C@@H](C)C(=O)N[C@@H](CCCNC(=N)N)C(=O)N[C@@H](CCCNC(=N)N)C(=O)N[C@@H](CCCNC(=N)N)C(=O)N[C@@H](CCCNC(=N)N)C(=O)NCCCCCC(=O)NCCCCC(NC(=O)CCCCCNC(=O)[C@H](CCCNC(=N)N)NC(=O)[C@H](CCCNC(=N)N)NC(=O)[C@H](CCCNC(=N)N)NC(=O)[C@H](CCCNC(=N)N)NC(=O)[C@H](C)NC(=O)[C@H](Cc1ccccc1)NC(=O)[C@H](CC(=O)O)NC(=O)[C@@H](NC(=O)[C@H](CCCCN)NC(=O)[C@H](CC(=O)O)NC(=O)[C@H](CCCNC(=N)N)NC(=O)[C@H](CCCNC(=N)N)NC(=O)[C@H](C)NC(=O)[C@@H](N)CCSC)[C@@H](C)O)C(=O)NCCCCC(NC(=O)C(CCCCNC(=O)CCCCCNC(=O)[C@H](CCCNC(=N)N)NC(=O)[C@H](CCCNC(=N)N)NC(=O)[C@H](CCCNC(=N)N)NC(=O)[C@H](CCCNC(=N)N)NC(=O)[C@H](C)NC(=O)[C@H](Cc1ccccc1)NC(=O)[C@H](CC(=O)O)NC(=O)[C@@H](NC(=O)[C@H](CCCCN)NC(=O)[C@H](CC(=O)O)NC(=O)[C@H](CCCNC(=N)N)NC(=O)[C@H](CCCNC(=N)N)NC(=O)[C@H](C)NC(=O)[C@@H](N)CCSC)[C@@H](C)O)NC(=O)CCCCCNC(=O)[C@H](CCCNC(=N)N)NC(=O)[C@H](CCCNC(=N)N)NC(=O)[C@H](CCCNC(=N)N)NC(=O)[C@H](CCCNC(=N)N)NC(=O)[C@H](C)NC(=O)[C@H](Cc1ccccc1)NC(=O)[C@H](CC(=O)O)NC(=O)[C@@H](NC(=O)[C@H](CCCCN)NC(=O)[C@H](CC(=O)O)NC(=O)[C@H](CCCNC(=N)N)NC(=O)[C@H](CCCNC(=N)N)NC(=O)[C@H](C)NC(=O)[C@@H](N)CCSC)[C@@H](C)O)C(N)=O)[C@@H](C)O (stereo partly shown): “mean tissue distribution” 1.35% (C57BL/6 mouse female, femur; dose not given, 3 h; reference: total).
With CC[C@H](C)[C@H](NC(=O)[C@H](C)NC(=O)[C@H](CCCCN)NC(=O)[C@H](CC(C)C)NC(=O)[C@@H](N)Cc1ccccc1)C(=O)N[C@@H](CCCCN)C(=O)N[C@@H](CCCCN)C(=O)N[C@@H](Cc1ccccc1)C(=O)NCC(=O)N[C@@H](CCCCN)C(=O)N[C@@H](CCC(=O)O)C(=O)N[C@@H](Cc1ccccc1)C(=O)N[C@@H](CCCCN)C(=O)N[C@@H](CCCCN)C(=O)N[C@H](C(=O)NCC(=O)N[C@@H](C)C(=O)N[C@@H](CCCCN)C(=O)N[C@@H](CC(C)C)C(=O)N[C@@H](CCCCN)C(=O)O)[C@@H](C)CC the hemolysis was 0.204% (human red blood cells; 0.5 mg/L, 1 h, mean of replicates).
CC[C@H](C)[C@H](NC(=O)[C@H](CCCCN)NC(=O)CNC(=O)[C@H](CC(C)C)NC(=O)[C@H](Cc1ccccc1)NC(=O)[C@H](CCCCN)NC(=O)[C@H](CO)NC(=O)[C@H](Cc1ccccc1)NC(=O)[C@H](Cc1c[nH]c2ccccc12)NC(=O)[C@H](CCC(N)=O)NC(=O)[C@@H](NC(=O)[C@H](Cc1ccccc1)NC(=O)CCCCCNC(=O)CN1CCN(CC(=O)O)CCN(CC(=O)O)CCN(CC(=O)O)CC1)C(C)C)C(=O)N[C@@H](CCC(=O)O)C(=O)N1CCC[C@H]1C(=O)N[C@@H](CC(=O)O)C(=O)N[C@H](C(=O)N[C@@H](CO)C(=O)N[C@@H](CCC(N)=O)C(=O)N[C@H](C(=O)N[C@@H](CCC(N)=O)C(=O)N[C@@H](CC(=O)O)C(=O)N1CCC[C@H]1C(=O)N[C@@H](CC(N)=O)C(=O)N[C@@H](CC(=O)O)C(=O)N[C@@H](CCC(N)=O)C(=O)N[C@@H](Cc1ccc(O)cc1)C(=O)N[C@@H](CCC(=O)O)C(=O)N1CCC[C@H]1C(=O)N[C@@H](Cc1ccccc1)C(=O)O)C(C)C)C(C)C [copper-64 labelled] gave an SUVmean of 0.86 SUV (dynamic PET; mouse both sexes, CT26 tumour, untreated, tumour; intravenous, 100 µCi/mouse, 1050 s).
For CSCC[C@H](NC(=O)CNC(=O)[C@H](CCCCN)NC(=O)[C@H](CC(C)C)NC(=O)[C@@H]1CCCN1C(=O)[C@H](CO)NC(=O)[C@H](Cc1c[nH]cn1)NC(=O)[C@H](Cc1c[nH]c2ccccc12)NC(=O)[C@H](CCCNC(=N)N)NC(=O)[C@H](CC(C)C)NC(=O)[C@H](CCCNC(=N)N)NC(=O)[C@H](Cc1c[nH]c2ccccc12)NC(=O)[C@H](CS)NC(=O)CCCCCNC(=O)CN1CCN(CC(=O)O)CCN(CC(=O)O)CCN(CC(=O)O)CC1)C(=O)O [copper-64 labelled], the tissue uptake was 0.25 %ID/g (C57BL/6J mice, B16-F10 tumour, brain; intravenous, 1.85 MBq, 18 h).
C/C(=N\OCCCN1CCCCC1)c1ccc(C(F)(F)F)cc1 has a Cmax of 1660 ± 251 ng/mL (mouse, plasma; oral, 100 mg/kg once daily, day 7).
The tissue uptake of CC(C)C[C@@H](NC(=O)[C@@H](CCCNC(=N)N)NC(=O)[C@@H](Cc1c[nH]cn1)NC(=O)[C@@H](Cc1c[nH]c2ccccc12)NC(=O)[C@@H](Cc1c[nH]cn1)NC(=O)[C@@H](Cc1ccccc1)NC(=O)[C@H](NC(=O)[C@@H](Cc1ccc(O)cc1)NC(=O)CNC(=O)CNC(=O)CCOCCOCCOCCNC(=O)CN1CCN(CC(=O)O)CCN(CC(=O)O)CC1)[C@H](C)O)C(=O)N[C@H](CC(N)=O)C(=O)N1CCC[C@@H]1C(=O)O [gallium-68 labelled] is reported as 1.25 ± 0.25 %ID/g (C57BL/6 mice, male, blood; intravenous, 1.85 MBq, 60 min, added: GP12 blocking).
CC[C@H](C)[C@H](NC(=O)[C@H](Cc1ccc(O)cc1)NC(=O)[C@@H](NC(=O)[C@H](CCCNC(=N)N)NC(=O)[C@@H](N)CC(=O)O)C(C)C)C(=O)N[C@@H](Cc1c[nH]cn1)C(=O)N1CCC[C@H]1C(=O)O gave a half-life of 28.5 min (Beagle dogs, both sexes, plasma; subcutaneous, 10 mg/kg/day, day 0, median).
CCCCCn1ccc(C(=O)NC(C)(C)c2ccc(CNC(C)=O)cc2)n1: “peripheral selectivity ratio” roughly 5 fold (mouse; dose not given; reference: plasma Cmax over brain Cmax).
The clearance of CC(C)=CCC/C(C)=C\CCn1cc(CC(P(=O)(O)O)P(=O)(O)O)nn1 is reported as 15.7 mL/min/kg (CD-1 mouse, plasma; intravenous, 0.5 mg/kg, single dose).
For O=C1NC2(CC2)COc2ncc(F)cc2[C@H]2COCCN2c2ccn3ncc1c3n2, “alkaline phosphatase activity” read 83.8 ± 9.6 U/L (Sprague-Dawley rat, female, serum; oral, 5 mg/kg/day, 4 weeks daily, end of treatment).
Under “red cell distribution width CV”, COc1ccc(CNc2ccc3c(c2)S(=O)(=O)C=C3)cc1 is recorded as 0.14% (male C57BL/6 mice, blood; intraperitoneal, 5 mg/kg, day 8, group average).
The lymphocytes of CC(C)[C@@H]1NC(=O)CNC(=O)[C@H](CC(N)=O)NC(=O)[C@H](CCCNC(=N)N)NC(=O)[C@H](Cc2ccc(O)cc2)NC(=O)[C@H](C(C)C)NC(=O)[C@@H](NC(=O)[C@@H](NC(=O)[C@H](CC(N)=O)NC(=O)[C@H](Cc2c[nH]c3ccccc23)NC(=O)[C@H](C)NC(=O)[C@H](Cc2ccccc2)NC(=O)CNC(=O)[C@H](CCCCN)NC(=O)[C@H](Cc2ccccc2)NC(=O)[C@H](Cc2ccccc2)NC(=O)[C@H](CCCCN)NC(=O)OCC2c3ccccc3-c3ccccc32)C(C)C)CSSC[C@@H](C(=O)N[C@@H](Cc2c[nH]cn2)C(=O)N[C@@H](CCCNC(=N)N)C(=O)N[C@@H](CCCNC(=N)N)C(=O)N[C@@H](C)C(=O)N[C@@H](CC(N)=O)C(N)=O)NC(=O)[C@H](C(C)C)NC(=O)[C@H](CCCNC(=N)N)NC1=O is reported as 74.4 ± 1.2% (ICR mouse, blood; intramammary, 5 mg/kg, day 5, 3 d dosing).
CSCC[C@H](NC(=O)[C@H](CC(C)C)NC(=O)[C@H](CCC(N)=O)NC(=O)[C@H](C)NC(=O)[C@H](Cc1c[nH]c2ccccc12)NC(=O)[C@H](Cc1ccc(O)cc1)NC(=O)[C@H](CCC(=O)O)NC(=O)[C@H](CC(C)C)NC(=O)[C@H](Cc1ccccc1)NC(=O)[C@@H](NC(=O)[C@H](CC(C)C)NC(=O)[C@H](CCCCN)NC(=O)CCCCCNC(=O)[C@H](CCCCN)NC(=O)[C@H](CCC(N)=O)NC(=O)[C@H](CCSC)NC(=O)[C@H](CC(C)C)NC(=O)[C@]1(C)CCCC=CCCC[C@](C)(NC(=O)[C@H](CC(C)C)NC(=O)[C@H](Cc2ccccc2)NC(=O)[C@@H](NC(=O)[C@H](CC(C)C)NC(=O)[C@H](CCCCN)NC(C)=O)[C@@H](C)O)C(=O)N[C@@H](Cc2ccc(O)cc2)C(=O)N[C@@H](Cc2c[nH]c3ccccc23)C(=O)N[C@@H](C)C(=O)N1)[C@@H](C)O)C(=O)N[C@@H](CCC(N)=O)C(=O)N[C@@H](CCCCN)C(N)=O gave a helical content of 96.7% (circular dichroism; phosphate buffer; pH 7.2, room temperature).
